{"data": "Experimental data pooled from the literature", "note": "Each line is one published result; not all experiments were run side by side. Numbers after ± are the reported error."}
{"Structure (SMILES)": "COC1CC(OC2CCC3(C)C(CCC45OC46CCC(C(C)=O)C6(C)C(OC(C)=O)C(OC(=O)c4ccccc4)C35)C2)OC(C)C1OC1OC(C)C(OC2OC(CO)C(O)C(O)C2O)C(OC)C1O (centres unmarked)", "cell line": "MDA435/LCC6-MDR1", "assay": "cell growth, MDR reversal, SRB", "conditions": "10 µM, added: doxorubicin", "how to read": "relative to: doxorubicin alone over combination", "quantity": "fold reversal of IC50", "result": 1}
{"Structure (SMILES)": "CC1OC2OC3C4=C(OC3(C)C12O)C(=O)c1c(O)cccc1C4=O (centres unmarked)", "cell line": "MDA-MB-231 and HFF", "assay": "MTT", "how to read": "relative to: CC50 HFF over EC50 MDA-MB-231", "quantity": "selectivity index", "result": 3.17}
{"Structure (SMILES)": "Cc1nc(C)c(C=[N+]([O-])C(C)(C)C)nc1C", "cell line": "rat primary midbrain neurons", "assay": "MTT", "conditions": "30 µM, added: MPP+", "quantity": "cell survival increase", "result": "9.95%"}
{"Structure (SMILES)": "CCOc1c(C(C)(C)O)sc2cnc(Nc3ccc(N4CCC(N5CC6(COC6)C5)CC4)cc3OC)nc12", "cell line": "human atrial cardiomyocytes", "assay": "caffeine-induced Ca transient", "conditions": "1, 3 and 10 µM", "how to read": "relative to: vehicle", "quantity": "SR Ca content", "result": "increased"}
{"Structure (SMILES)": "Cc1cc(C)c(-n2ccn(-c3c(C)cc(C)cc3C)c2=[Se])c(C)c1.[Cl][Au]", "cell line": "LoVo MDR", "assay": "MTT", "how to read": "relative to: LoVo MDR over LoVo", "quantity": "resistance factor", "result": 1.9}
{"Structure (SMILES)": "COC(=O)C1=CO[C@@H](OC(C)=O)[C@@H]2C(Cn3cc(C4(O)CCCCC4)nn3)=CC[C@H]12", "cell line": "SK-N-SH", "assay": "neuroprotection, MTT", "conditions": "0.6 µM, 24 h, added: 250 µM H2O2", "quantity": "viability", "result": "57.1 ± 1.2%"}
{"Structure (SMILES)": "CSCC[C@H](NC(=O)[C@H](CC(C)C)NC(=O)[C@H](Cc1c[nH]cn1)NC(=O)CNC(=O)[C@@H](NC(=O)[C@H](C)NC(=O)[C@H](Cc1c[nH]c2ccccc12)NC(=O)[C@H](CCC(N)=O)NC(=O)CCCCCCCNC(=O)[C@@H](CCCCNC(=O)Cn1ccnc1[N+](=O)[O-])NC(=O)[C@@H](CCCCNC(=O)Cn1ccnc1[N+](=O)[O-])NC(=O)[C@@H](CCCCNC(=O)Cn1ccnc1[N+](=O)[O-])NC(=O)CN1CCN(CC(=O)O)CCN(CC(=O)O)CCN(CC(=O)O)CC1)C(C)C)C(N)=O [indium-111 labelled]", "cell line": "PC-3", "conditions": "concentration not given, 8 h, hypoxia", "quantity": "retained internalized radioactivity", "result": "69.4%"}
{"Structure (SMILES)": "c1cncc(Nc2c3c(nc4ccccc24)CCCC3)c1", "cell line": "SH-SY5Y", "assay": "MTT", "conditions": "50 µM, 1 h pretreatment, 10% FBS, added: H2O2", "quantity": "viability", "result": "61.5 ± 0.64%"}
{"Structure (SMILES)": "COC(=O)C1=CO[C@@H](OC(C)=O)[C@@H]2C(Cn3cc(CCN4C(=O)c5ccccc5C4=O)nn3)=CC[C@H]12", "cell line": "SK-N-SH", "assay": "neuroprotection, MTT", "conditions": "0.6 µM, 24 h, added: 250 µM H2O2", "quantity": "viability", "result": "65.5 ± 2.7%"}
{"Structure (SMILES)": "CC1(C)C(=O)[O][Pt][O]C1=O.N[C@@H]1CCCC[C@H]1N", "cell line": "DU-145 GLUT1 shRNA knockdown", "assay": "cell viability, MTT", "conditions": "7.5 h plus 64 h recovery", "how to read": "relative to: parental DU-145", "quantity": "IC50 change", "result": "no effect"}
{"Structure (SMILES)": "COC(=O)C1=CO[C@@H](OC(C)=O)[C@@H]2C(Cn3cc(CON4C(=O)c5ccccc5C4=O)nn3)=CC[C@H]12", "cell line": "SK-N-SH", "assay": "neuroprotection, MTT", "conditions": "0.075 µM, 24 h, added: 250 µM H2O2", "quantity": "viability", "result": "78.5 ± 0.4%"}
{"Structure (SMILES)": "CC(C)CC(O)(CC(C)C)c1cn(C(=O)N2CCCC2)nn1", "cell line": "mouse T-cells", "assay": "N-terminal labeled proteins, N-terminal enrichment proteomics, refers to: FBXO7", "conditions": "1 nM, 6 h", "how to read": "relative to: DMSO", "quantity": "SILAC ratio", "result": "4.27 ± 0.11"}
{"Structure (SMILES)": "COC(=O)C1=CO[C@@H](O)[C@@H]2C(Cn3cc(CN4C(=O)c5ccccc5C4=O)nn3)=CC[C@H]12", "cell line": "SK-N-SH", "assay": "neuroprotection, MTT", "conditions": "0.15 µM, 24 h, added: 250 µM H2O2", "quantity": "viability", "result": "72.7 ± 1.5%"}
{"Structure (SMILES)": "CCCCCCCCCCCCCCCC[P+](c1ccccc1)(c1ccccc1)c1ccccc1", "cell line": "SK-OV-3", "assay": "cell growth or viability, MTT", "conditions": "72 h", "quantity": "GI50", "result": "13.8 µM"}
{"note": "A few entries again:"}
{"Structure (SMILES)": "CC1(C)C(=O)[O][Pt][O]C1=O.N[C@@H]1CCCC[C@H]1N", "cell line": "DU-145 GLUT1 shRNA knockdown", "assay": "cell viability, MTT", "conditions": "7.5 h plus 64 h recovery", "how to read": "relative to: parental DU-145", "quantity": "IC50 change", "result": "no effect"}
{"Structure (SMILES)": "COC(=O)C1=CO[C@@H](O)[C@@H]2C(Cn3cc(CN4C(=O)c5ccccc5C4=O)nn3)=CC[C@H]12", "cell line": "SK-N-SH", "assay": "neuroprotection, MTT", "conditions": "0.15 µM, 24 h, added: 250 µM H2O2", "quantity": "viability", "result": "72.7 ± 1.5%"}
